Experimental data gathered from unrelated publications.
± gives the spread as reported. ≈ marks a conversion by molar mass, not a printed value.

Molecule | tested on | assay | system | conditions | how to read | quantity | result
COc1cc2c(cc1OC)C(=O)C(CC1CCN(Cc3ccccc3)CC1)C2 (stereo not shown) |  | Morris water maze | male Swiss mice, scopolamine model | oral, 5 mg/kg, day 7, together with: scopolamine 1.5 mg/kg i.p. | relative to: scopolamine alone | time in target quadrant | increased
CC(C)=CCOc1c2occc2cc2ccc(=O)oc12 |  |  | female SENCAR mice, liver cytosol | oral, 70 mg/kg, 4 days, together with: DCNB substrate | relative to: corn oil vehicle, maximum induction | GST activity | 300%
CC[C@H](C)[C@H](NC(=O)[C@H](CO)NC(=O)[C@H](CCC(N)=O)NC(=O)[C@H](CC(C)C)NC(=O)[C@H](Cc1ccc(O)cc1)NC(=O)[C@H](CCCCN)NC(=O)[C@H](CCCCN)NC(=O)[C@H](C)NC(=O)[C@H](C)NC(=O)[C@@H](NC(=O)[C@H](CCC(N)=O)NC(=O)[C@H](CCCCN)NC(=O)[C@H](CCCNC(=N)N)NC(=O)[C@H](CC(C)C)NC(=O)[C@H](CCCNC(=N)N)NC(=O)[C@@H](NC(=O)[C@H](Cc1ccc(O)cc1)NC(=O)[C@H](CC(N)=O)NC(=O)[C@H](CC(=O)O)NC(=O)[C@@H](NC(=O)[C@H](Cc1ccccc1)NC(=O)[C@@H](NC(=O)[C@H](C)NC(=O)[C@H](CC(=O)O)NC(=O)[C@H](CO)NC(=O)[C@@H](N)Cc1c[nH]cn1)C(C)C)[C@@H](C)O)[C@@H](C)O)C(C)C)C(=O)N[C@@H](CCCCN)C(=O)N[C@@H](CC(N)=O)C(=O)N[C@@H](CCCCN)C(=O)N[C@@H](CCCNC(=N)N)C(=O)N[C@@H](Cc1ccc(O)cc1)C(N)=O |  | IPGTT | db/db mouse | intraperitoneal, 20 nmol/kg, 15 to 120 min, dosed 15 min before glucose | relative to: normal saline | second-phase insulin secretion | 0.51 fold
COc1ccc(-c2nc3ccccc3s2)cc1OCc1nnc(-c2ccc([N+](=O)[O-])cc2)o1 |  | seizure protection | albino mouse, scPTZ-induced seizure | ip, 4.0 h |  | minimal effective dose | 30 mg/kg
COc1cccc(CN(C)Cc2cccc(CN(C)Cc3cccc(OC)c3)n2)c1 |  |  | mouse carrageenan paw edema | ip, 10 mg/kg daily, 74 h | relative to: vehicle | paw edema inhibition | 31%
O=C1c2c(O)cc(O)cc2O[C@H](c2cc(O)c(O)c(O)c2)[C@H]1O |  | patch clamp | rat, hippocampal dentate granule cells | oral, 1 mg/kg, 48 h after withdrawal, together with: ethanol 5 g/kg gavage, bath ethanol 60 mM |  | tonic GABA-A current | 60 ± 2.2 pA
Cn1c(-c2ccc(C(N)=O)cc2F)nnc1C(C)(C)Oc1c(F)cc(Cl)cc1F |  |  | healthy young Japanese subjects, plasma | oral, 20 mg once daily, day 18, 14 days dosing |  | AUC(0-tau) median | 2470 ng·h/mL
O=C1O[C@H]([C@@H](O)CO)C(O)=C1O |  | superoxide scavenging, pyrogallol |  |  |  | IC50 | 40 ± 1.2 µM
COc1ccc(-c2nc3ccccc3s2)cc1OCc1nnc(-c2ccc(N)cc2)o1 |  | hind limb tonic extension | albino mouse, MES-induced seizure | ip, 4.0 h |  | minimal effective dose | 100 mg/kg
CCCCCCCC/C=C\CCCCCCCC(=O)O |  |  | neonatal hUGT1 mice | oral, dose not given, 48 h |  | serum total bilirubin | 2.4 mg/dL
insulin aspart |  | euglycaemic clamp | type 1 diabetes patients | subcutaneous, 0.2 U/kg single, 0-60 min, antibody quartile 3, 6.65-15.68 %B/T |  | AUC glucose infusion rate | 119 mg/kg
C[C@H]1C[C@H]2CSC(N)=N[C@@]2(c2nc(NC(=O)c3ccc(OC(F)F)cn3)cs2)CO1 |  | measured: CSF Aβx-42 | healthy adults | 50 mg once daily, 14 days, day 15 | relative to: placebo-adjusted baseline | change from baseline | -63.2%
COc1ccc(-c2nc3ccccc3s2)cc1OCc1nnc(-c2c(C)cccc2C)o1 |  | hind limb tonic extension | albino mouse, MES-induced seizure | ip, 0.5 h |  | minimal effective dose | 100 mg/kg
CC(C)C[C@H](NC(=O)CCOCCOCCOCCNC(=O)COCC(=O)Nc1ccc(Oc2ccc3c4nc5nc(nc6[nH]c(nc7nc(nc([nH]4)c3c2)-c2cc(C(C)(C)C)ccc2-7)c2ccc(C(C)(C)C)cc62)-c2ccc(C(C)(C)C)cc2-5)cc1)C(=O)N[C@@H](C)C(=O)N[C@@H](CCCNC(=N)N)C(=O)N[C@@H](CC(C)C)C(=O)N[C@@H](CC(C)C)C(=O)N[C@H](C(N)=O)[C@@H](C)O |  | near-IR fluorescence imaging | nude mice, A-431 xenograft | intravenous, 10 mg/kg |  | time to tumour visibility | 24 h
CCCCCCOC(=O)/C=C/c1ccc(O)c(O)c1 |  | DPPH | ethanol | 20 µM, 30 min, room temperature |  | radical scavenging | 67%
CN1CCN(c2ccc(Nc3ncc4cc5n(c4n3)C3(CCCCC3)CNC5=O)nc2)CC1 |  | measured: EdU incorporation, S/G2/M cells | haematopoietic stem cells, mice | intraperitoneal, 50 or 100 mg/kg |  | onset of reduced HSC proliferation | 4 h
O=C(/C=C/c1ccc(O)c(O)c1)OCCc1ccc(O)cc1 |  | DPPH | ethanol | 20 µM, 30 min, room temperature |  | radical scavenging | 59%
Cc1c2ccccc2c(C)c2c1ccc1ccccc12 |  | inducer | female rat, liver | oral, 10 mg, 24 h, sesame oil vehicle |  | menadione reductase activity | 50.7 enzyme units
CC(=O)CC(c1ccccc1)c1c(O)c2ccccc2oc1=O (stereo not shown) |  |  | human | 25 mg single dose, 0 to 168 h |  | AUC of prothrombin time | 2480 ± 246 s h
COc1ccc(-c2nc3ccccc3s2)cc1OCc1nnc(-c2ccc(O)cc2)o1 |  | hind limb tonic extension | albino mouse, MES-induced seizure | ip, 4.0 h |  | minimal effective dose | 30 mg/kg
CCCCC[C@H](O)/C=C/[C@H]1[C@H](O)CC(=O)[C@@H]1C/C=C\CCCC(=O)O |  |  | human airway smooth muscle cells | 10 µM, 5 min, Ca2+-free buffer |  | Ca2+ store content | no effect
CS/C(S)=N/CCCC[S+](C)[O-] (racemic) |  | RT-PCR, measured: Marcks | rat, colon | oral gavage, 200 mg/kg, 96 h, dosed for four days | relative to: vehicle | mRNA fold change | 6.89
O=C(/C=C/c1ccc(O)c(O)c1)OCCCCc1ccccc1 |  | DPPH | ethanol | 20 µM, 30 min, room temperature |  | radical scavenging | 69%
O=c1[nH]c(=S)[nH]c2nc(-c3ccccc3)cc(-c3ccc4ccccc4n3)c12 |  | DPPH scavenging, absorbance |  | 30 min |  | IC50 | 189 µM
tissue plasminogen activator |  | measured: platelets | rat MCAO stroke model, brain | dose not given, 24 h, dosed 4 h after MCAO | relative to: saline | microvascular thrombosis | increased
COc1cccc2c1C(=O)c1c(O)c3c(c(O)c1C2=O)C[C@@](O)(C(=O)CO)C[C@@H]3O[C@H]1C[C@H](N)[C@H](O)[C@H](C)O1 |  |  | mice bearing T47D xenografts | 5 mg/kg once weekly, 20 days after inoculation, treated 2 weeks |  | tumour volume | 53 ± 23.4 mm3

Molecule | tested on | assay | system | conditions | how to read | quantity | result
CC(C)(O)c1ccccc1-c1ccc2[nH]c(/C=C/c3ccc(C(F)(F)F)cc3)nc2c1 |  |  | human | max heat pain detection threshold |  | plasma concentration | ≥ 100 ng/mL
SIIVFEKL |  | flow cytometry, measured: CD44hi CD8+ T cells | peptide, OT-I CD8+ T cells, mouse | dose not given, primed 5 days, TGF-β1 from day 2 onward, together with: 20 ng/mL TGF-β1 |  | IL-2 only cells | 17.6%
O=C(NC[C@H]1CN(c2ccc(N3CCOCC3=O)cc2)C(=O)O1)c1ccc(Cl)s1 |  | thrombin generation | human platelet-poor plasma | together with: thrombomodulin | relative to: without over with thrombomodulin | IC50 ratio | 12 fold
Cc1cc(C)c(/C=C2\C(=O)Nc3ccccc32)[nH]1 |  |  | human, pediatric refractory CNS tumours | dose not given, stratum I | relative to: patients | sustained stable disease | 25%
COCCCCn1c(C(=O)N(CC(C)C)[C@@H]2CNC[C@H](C(=O)N3CCOCC3)C2)nc2ccccc21 |  | radioimmunoassay | humans | dose not given | relative to: baseline | plasma aldosterone change | no effect
COc1cc2nccc(Oc3ccc(NC(=O)c4cc5c(n(-c6ccccc6)c4=O)CCCC5=O)nc3)c2cc1OC |  | immunohistochemistry, measured: cleaved caspase-3 | MOLM-13 luc/gfp xenograft, mouse AML xenograft, spleen | oral feed, 0.013% in feed | relative to: control food | apoptotic cells | > 2 fold
Cc1c(OCC(F)(F)F)ccnc1C[S@@+]([O-])c1nc2ccccc2[nH]1 |  |  | healthy humans | oral, 60 mg, 0 to 24 h postdose, single dose |  | mean intragastric pH | 4.3
Nc1ccc2ccc3c4ccccc4ccc3c2c1 |  | inducer | female rat, liver | oral, 10 mg, 24 h, sesame oil vehicle |  | menadione reductase activity | 104 enzyme units
COc1ccc(-c2nc3ccccc3s2)cc1OCc1nnc(C(c2ccccc2)c2ccccc2)o1 |  | seizure protection | albino mouse, scPTZ-induced seizure | ip, 4.0 h |  | minimal effective dose | 300 mg/kg
difelikefalin |  |  | Japanese haemodialysis patients with pruritus | intravenous, 1.0 µg/kg thrice weekly, week 8 | relative to: baseline, direction not given | NRS itch score change | -3.64
Cc1cnc(-c2ccnc(C(C)(C)O)n2)cc1-n1c(C)cc(OCc2ncc(F)cc2F)c(Cl)c1=O |  | TNF-α release, inhibitor | human, whole blood, ex vivo | plasma concentration, together with: LPS |  | IC80 | 0.0626 µg/mL (≈ 0.122 µM)
COc1ccc2c(c1)c(CC(=O)O)c(C)n2C(=O)c1ccc(Cl)cc1 |  | multiplex bead immunoassay, measured: IL-1β | CD-1 mice, serum | ip, 20 mg/kg, three-injection regimen, together with: LPS 3 mg/kg |  | cytokine level | 4.9 ± 1.5 pg/mL
neuropeptide Y |  | mean arterial pressure | rat Sprague Dawley urethane-anaesthetized | intravenous, 5 nmol |  | time to response resolution | 23.1 ± 6 min
CC(C)[C@H](NS(=O)(=O)c1ccc(-c2ccc(Br)cc2)cc1)C(=O)O |  | measured: troponin I in coronary effluent | rat, isolated perfused stunned heart | dose not given, 20-25 min ischaemia, 5 min reperfusion |  | troponin I release | 42.2 ± 11.1 ng/mL
Nc1cc2c3ccccc3ccc2c2ccccc12 |  | inducer | female rat, liver | oral, 1 mg, 24 h, sesame oil vehicle |  | menadione reductase activity | 22.9 enzyme units
CCc1cc(-c2noc(-c3cc(OC)nc(C4CCCC4)c3)n2)cc(C)c1OC[C@@H](O)CO |  |  | C57BL/6 mice, MOG33-55 EAE | dose not given, therapeutic treatment | direction not given | time to clinical score 0.5 | ≤ 6 days
Cn1cnc2c(F)c(Nc3ccc(Br)cc3Cl)c(C(=O)NOCCO)cc21 |  | volumetric MRI | sample A plexiform neurofibroma patients, growing tumours | dose not given |  | partial response rate | 67%
CC(C)(C)c1nn(-c2cc(OCc3cn(Cc4ccccc4Br)nn3)c(Cl)cc2Cl)c(=O)o1 | Toxoplasma gondii | intracellular parasite growth, luminescence | HFF, wild type, NanoLuc reporter | 96 h |  | IC50 | 9.2 ± 1.2 µM
CC12CC3CC(C)(C1)CC(N)(C3)C2 |  |  | human | 0.5 mg/kg/day, 9072 h, together with: valproic acid |  | seizure frequency | 3.3 per week
COc1ccc(-c2nc3ccccc3s2)cc1OCc1nnc(-c2ccc(Br)cc2)o1 |  | seizure protection | albino mouse, scPTZ-induced seizure | ip, 0.5 h |  | minimal effective dose | 300 mg/kg
CC(C)(O)CNc1nc(Nc2ccnc(C(F)(F)F)c2)nc(-c2cccc(C(F)(F)F)n2)n1 |  | measured: 2-hydroxyglutarate | human newly diagnosed mIDH AML | oral, 100 mg once daily, induction cycle 1 day 1, together with: induction chemotherapy |  | plasma 2-HG trough reduction | 37.8%
COc1ccc(-c2nnc(COc3cc(-c4nc5ccccc5s4)ccc3OC)o2)cc1 |  | seizure protection | albino mouse, scPTZ-induced seizure | ip, 0.5 h |  | minimal effective dose | 300 mg/kg
c1ccc2c(c1)ccc1c3ccccc3ccc21 |  | inducer | female rat, liver | oral, 1 mg, 24 h, sesame oil vehicle |  | menadione reductase activity | 15.9 enzyme units
COc1ccc(-c2nc3ccccc3s2)cc1OCc1nnc(-c2cc([N+](=O)[O-])cc([N+](=O)[O-])c2O)o1 |  | hind limb tonic extension | albino mouse, MES-induced seizure | ip, 4.0 h |  | minimal effective dose | 30 mg/kg
CCN(CC)c1ccc2nc3ccc(N=Nc4ccc(N(C)CCCC(=O)NCCCC[C@@H](NC(=O)CNC(=O)[C@H](CCCNC(=N)N)NC(=O)[C@@H](NC(=O)CNC(=O)[C@H](CC(C)C)NC(=O)[C@@H]5CCCN5C(=O)CNC(=O)CCCCC[N+]5=C(C=CC=CC=C6N(CC)c7ccc8c(S(=O)(=O)[O-])cc(S(=O)(=O)O)cc8c7C6(C)C)C(C)(C)c6c5ccc5c(S(=O)(=O)[O-])cc(S(=O)(=O)O)cc65)C(C)C)C(=O)NCC(=O)NCC(=O)NCCOCCOCCOCCOCCOCCOCCOCCOCCOCCOCCOCCO)cc4)cc3[n+](-c3ccccc3)c2c1 |  | ex vivo fluorescence imaging | nude mice SCC-7 tumour | iv, 10 nmol/mouse, 2 h |  | tumour to muscle ratio | 7.92 ± 1.3
C=CCN1C[C@H](C(=O)N(CCCN(C)C)C(=O)NCC)C[C@@H]2c3cccc4[nH]cc(c34)C[C@H]21 |  |  | giant prolactinoma patients | mean 1.70 mg/week, mean 11.78 months |  | nadir median prolactin | 47.2 ng/mL

A few entries again:
Molecule | tested on | assay | system | conditions | how to read | quantity | result
COc1cccc2c1C(=O)c1c(O)c3c(c(O)c1C2=O)C[C@@](O)(C(=O)CO)C[C@@H]3O[C@H]1C[C@H](N)[C@H](O)[C@H](C)O1 |  |  | mice bearing T47D xenografts | 5 mg/kg once weekly, 20 days after inoculation, treated 2 weeks |  | tumour volume | 53 ± 23.4 mm3
Cn1cnc2c(F)c(Nc3ccc(Br)cc3Cl)c(C(=O)NOCCO)cc21 |  | volumetric MRI | sample A plexiform neurofibroma patients, growing tumours | dose not given |  | partial response rate | 67%
CC(C)(C)c1nn(-c2cc(OCc3cn(Cc4ccccc4Br)nn3)c(Cl)cc2Cl)c(=O)o1 | Toxoplasma gondii | intracellular parasite growth, luminescence | HFF, wild type, NanoLuc reporter | 96 h |  | IC50 | 9.2 ± 1.2 µM
